Measurements pooled from the literature.
Protocols differ between the studies behind these lines. ± gives the spread as reported.

`CCCC[C@H](NC(=O)[C@@H](NC(=O)[C@H](CC(=O)O)NC(=O)[C@H](CCC(N)=O)NC(=O)[C@H](CC(C)C)NC(=O)[C@H](CC(C)C)NC(=O)[C@H](CCCN)NC(=O)[C@H](CCCNC(=N)N)NC(=O)[C@H](C)NC(=O)[C@H](CO)NC(=O)[C@H](CC(C)C)NC(=O)[C@H](CCC(N)=O)NC(=O)[C@H](CC)NC(=O)[C@H](CC(C)C)NC(=O)[C@@H](NC(=O)[C@H](CCCN)NC(=O)[C@H](CCCNC(=N)N)NC(=O)[C@H](Cc1ccc(O)cc1)NC(=O)[C@H](CO)NC(=O)[C@H](CC(N)=O)NC(=O)[C@@H](NC(=O)[C@H](Cc1ccccc1)NC(=O)[C@@H](NC(=O)[C@H](C)NC(=O)[C@H](CC(=O)O)NC(=O)[C@@H](C)NC(=O)[C@H](Cc1ccc(O)cc1)NC)[C@@H](C)CC)[C@@H](C)O)C(C)C)[C@@H](C)CC)C(=O)N[C@@H](CC(=O)O)C(=O)N[C@@H](CCCNC(=N)N)C(=O)NCC` has a relative potency of 125 (GH release; male rat, serum; subcutaneous, dose not given, 30 min; reference: GHRH(1-29)NH2).
`CCCCSc1nnc(-c2ccccc2)o1` gave an IC50 of 90.1 ± 2.2 µM (H2O2 scavenging).
For `CN1CCC[C@]1(C)/C=C/S(=O)(=O)NC(=O)Nc1c2c(cc3c1CCC3)CCC2`, the inhibition was ~90% (IL-18 release; human, whole blood ex vivo; oral, 100 mg, 36 h after last dose, multiple ascending dose, added: LPS and ATP).
The EC50 of `O=c1cc(-c2ccc(O)cc2)oc2c(-c3ccc(O)c(O)c3)c(O)cc(O)c12` is reported as 1050 µM (ABTS scavenging, absorbance).
For `Cc1ccc([C@@H]2O[C@H](CO)[C@@H](O)[C@H](O)[C@H]2O)cc1Cc1ccc(-c2ccc(F)cc2)s1`, “serum ALT activity” read 84.2 ± 2.02 U/L (rabbit, STZ-nicotinamide type 2 diabetes, serum; dose not given, 28 days).
`CC[C@H](C)[C@@H]1NC(=O)[C@H](Cc2ccc(O)cc2)NC(=O)[C@@H](N)CSSC[C@@H](C(=O)NCC(=O)N[C@@H](CCCCNC(=O)COCCOCCNC(=O)COCCOCCNC(=O)CC[C@H](NC(=O)CC[C@H](NC(=O)CCCCCCCCCCCCCCCCC(=O)O)C(=O)O)C(=O)O)C(=O)NCC(N)=O)NC(=O)[C@H](CC(N)=O)NC(=O)[C@H](CCC(N)=O)NC1=O` — result for “food intake suppression”: 14% (C57BL/6 mice, diet-induced obese; subcutaneous, 2 µmol/kg daily; reference: vehicle).
For `COc1ccc2c(c1)c(CC(=O)OCC(=O)OC(C)(C)C)c(C)n2C(=O)c1ccc(Cl)cc1`, “latency of nociceptive response” read 13.9 ± 1.11 s (hot plate test; BALB/c mice; 50 mg/kg, 90 min).
The sperm motility of `Cc1cc(O)c(C=O)c2c1C(=O)Oc1c(CO)c(O)c3c(c1O2)C(O)OC3=O` (stereo not shown) is reported as 61.3 ± 1.03% (rat, male, streptozotocin-induced diabetes, cauda epididymis; 5 mg/kg, 9 weeks).
For `N=C(N)NCCC[C@@H](N)C(=O)NCC(=O)N[C@H](CCC(=O)O)C(=O)N[C@H](CCCNC(=N)N)C(=O)N1CCC[C@@H]1C(=O)N1CCC[C@@H]1C(=O)N[C@H](CCCNC(=N)N)C(N)=O`, “Evans blue permeation increase” read 30.5% (Evans blue; nude mouse U87 subcutaneous xenograft, tumour; iv, 4 µmol/kg, 30 min; reference: PBS).
`CCCC[C@H](NC(=O)[C@@H](NC(=O)[C@H](CC(=O)O)NC(=O)[C@H](CCC(N)=O)NC(=O)[C@H](CC(C)C)NC(=O)[C@H](CC(C)C)NC(=O)[C@H](CCCN)NC(=O)[C@H](CCCNC(=N)N)NC(=O)[C@H](C)NC(=O)[C@H](CO)NC(=O)[C@H](CC(C)C)NC(=O)[C@H](CCC(N)=O)NC(=O)[C@H](CC)NC(=O)[C@H](CC(C)C)NC(=O)[C@@H](NC(=O)[C@H](CCCN)NC(=O)[C@H](CCCNC(=N)N)NC(=O)[C@H](Cc1ccc(O)cc1)NC(=O)[C@H](CO)NC(=O)[C@H](CCC(N)=O)NC(=O)[C@@H](NC(=O)[C@H](Cc1ccccc1)NC(=O)[C@@H](NC(=O)[C@H](C)NC(=O)[C@H](CC(=O)O)NC(=O)[C@@H](C)NC(=O)[C@H](Cc1ccc(O)cc1)NC)[C@@H](C)CC)[C@@H](C)O)C(C)C)[C@@H](C)CC)C(=O)N[C@@H](CC(=O)O)C(=O)N[C@@H](CCCNC(=N)N)C(=O)NC` has a relative potency of 449 (GH release; male rat, serum; subcutaneous, dose not given, 30 min; reference: GHRH(1-29)NH2).
For `C=C(c1cc(F)c(C(=O)O)c(F)c1)c1cc2c(cc1C)C(C)(C)CCC2(C)C`, “log2 fold change” read -0.3 (RNA sequencing, refers to: Scd1; rat, brain; dose not given, 24 h; reference: vehicle).
`CCCCCCCCCCCCCCCC(=O)OCC(CSC[C@H](N)C(=O)N[C@@H](CO)C(=O)N[C@@H](CCCCN)C(=O)N[C@@H](CCCCN)C(=O)N[C@@H](CCCCN)C(=O)N[C@@H](CCCCN)C(=O)NCCCCCC(=O)N[C@@H](CCCCN)C(=O)N[C@@H](CC(C)C)C(=O)N[C@H](C(=O)N[C@@H](Cc1ccccc1)C(=O)N[C@@H](Cc1ccccc1)C(=O)N[C@@H](Cc1ccc2ccccc2c1)C(=O)O)C(C)C)OC(=O)CCCCCCCCCCCCCCC` (stereo partly shown) — result for “OC-positive plaque area”: “increased” (APP/PS1 mouse; intracortical, dose not given, 2 d; reference: vehicle).
With `CCCC[C@H](NC(=O)[C@@H](NC(=O)[C@H](CC(=O)O)NC(=O)[C@H](CCC(N)=O)NC(=O)[C@H](CC(C)C)NC(=O)[C@H](CC(C)C)NC(=O)[C@H](CCCN)NC(=O)[C@H](CCCNC(=N)N)NC(=O)[C@H](C)NC(=O)[C@H](CO)NC(=O)[C@H](CC(C)C)NC(=O)[C@H](CCC(N)=O)NC(=O)[C@H](CC)NC(=O)[C@H](CC(C)C)NC(=O)[C@@H](NC(=O)[C@H](CCCN)NC(=O)[C@H](CCCNC(=N)N)NC(=O)[C@H](Cc1ccc(O)cc1)NC(=O)[C@H](CO)NC(=O)[C@H](CCC(N)=O)NC(=O)[C@@H](NC(=O)[C@H](Cc1ccccc1)NC(=O)[C@@H](NC(=O)[C@H](C)NC(=O)[C@H](CC(=O)O)NC(=O)[C@H](C)NC(=O)CCc1ccc(O)cc1)[C@@H](C)CC)[C@@H](C)O)C(C)C)[C@@H](C)CC)C(=O)N[C@@H](CC(=O)O)C(=O)N[C@@H](CCCNC(=N)N)C(=O)NC` the relative potency was 1 to 4 fold (GH release; rat, male, serum; subcutaneous, dose not given, 15 and 30 min; reference: reference GHRH agonist JI-38).
The IC50 of `CC(=O)c1cnc(N)nc1N1CC[C@H]1c1nn2ccc(Cl)c2c(=O)n1-c1ccccc1` is reported as 0.066 µM (Th17 differentiation, refers to: IFNγ; rheumatoid arthritis patient whole blood).
For `CCCC[C@H](NC(=O)[C@@H](NC(=O)[C@H](CC(=O)O)NC(=O)[C@H](CCC(N)=O)NC(=O)[C@H](CC(C)C)NC(=O)[C@H](CC(C)C)NC(=O)[C@H](CCCN)NC(=O)[C@H](CCCNC(=N)N)NC(=O)[C@H](C)NC(=O)[C@H](CO)NC(=O)[C@H](CC(C)C)NC(=O)[C@H](CCC(N)=O)NC(=O)[C@H](CC)NC(=O)[C@H](CC(C)C)NC(=O)[C@@H](NC(=O)[C@H](CCCN)NC(=O)[C@H](CCCNC(=N)N)NC(=O)[C@H](Cc1ccc(O)cc1)NC(=O)[C@H](CO)NC(=O)[C@H](CCC(N)=O)NC(=O)[C@@H](NC(=O)[C@H](Cc1ccccc1)NC(=O)[C@@H](NC(=O)[C@H](C)NC(=O)[C@H](CC(=O)O)NC(=O)[C@@H](C)NC(=O)[C@H](Cc1ccc(O)cc1)NC)[C@@H](C)CC)[C@@H](C)O)C(C)C)[C@@H](C)CC)C(=O)N[C@@H](CC(=O)O)C(=O)N[C@@H](CCCNC(=N)N)C(=O)NCC`, the relative potency was 72.6 (GH release; male rat, serum; subcutaneous, dose not given, 15 min; reference: GHRH(1-29)NH2).
For `CCCCCCCCCn1cc(C(N)(CO)CO)nn1`, “microglia around Aβ plaques” read “increased” (APP/PS1 mouse; dose not given; reference: PBS).
For `COC(=O)N[C@H]1CC[C@@H](Nc2cc(NCc3ccccc3F)n3ncc(C(C)C)c3n2)CC1`, “Ki-67 staining decrease” read 1.3 fold (immunostaining; mice with HCT-116 xenograft; dose not given, 48 h; reference: vehicle).
For `COC1OC(C)C(OC2OC(C)C(OS(=O)(=O)O)C(OC3OC(C)C(OC4OC(C)C(OS(=O)(=O)O)C(OC5OC(C)C(OC6OC(C)C(OS(=O)(=O)O)C(OC7OC(C)C(OS(=O)(=O)O)C(OS(=O)(=O)O)C7OS(=O)(=O)O)C6OS(=O)(=O)O)C(OS(=O)(=O)O)C5OS(=O)(=O)O)C4OS(=O)(=O)O)C(OS(=O)(=O)O)C3OS(=O)(=O)O)C2OS(=O)(=O)O)C(OS(=O)(=O)O)C1OS(=O)(=O)O` (stereo not shown), “concentration doubling APTT” read 12.9 µg/mL (clotting time; human plasma).
`CCCC[C@H](NC(=O)[C@@H](NC(=O)[C@H](CC(=O)O)NC(=O)[C@H](CCC(N)=O)NC(=O)[C@H](CC(C)C)NC(=O)[C@H](CC(C)C)NC(=O)[C@H](CCCN)NC(=O)[C@H](CCCNC(=N)N)NC(=O)[C@H](C)NC(=O)[C@H](CO)NC(=O)[C@H](CC(C)C)NC(=O)[C@H](CCC(N)=O)NC(=O)[C@H](CC)NC(=O)[C@H](CC(C)C)NC(=O)[C@@H](NC(=O)[C@H](CCCN)NC(=O)[C@H](CCCNC(=N)N)NC(=O)[C@H](Cc1ccc(O)cc1)NC(=O)[C@H](CO)NC(=O)[C@@H](NC(=O)[C@@H](NC(=O)[C@H](Cc1ccccc1)NC(=O)[C@@H](NC(=O)[C@H](C)NC(=O)[C@H](CC(=O)O)NC(=O)[C@@H](C)NC(=O)[C@H](Cc1ccc(O)cc1)NC)[C@@H](C)CC)[C@@H](C)O)[C@@H](C)O)C(C)C)[C@@H](C)CC)C(=O)N[C@@H](CC(=O)O)C(=O)N[C@@H](CCCNC(=N)N)C(=O)NC` gave a relative potency of 363 (GH release; male rat, serum; subcutaneous, dose not given, 30 min; reference: GHRH(1-29)NH2).
The activation energy of `N[C@@H](CO)C(=O)N1CCC[C@H]1C(=O)NCC(=O)NCC(=O)O` is reported as 74 ± 5 kJ/mol (diketopiperazine formation, Arrhenius plot, ESI-MS; 1-propanol; 70, 80, 90 °C, 0.5% acetic acid).
For `CCCC[C@H](NC(=O)[C@@H](NC(=O)[C@H](CC(=O)O)NC(=O)[C@H](CCC(N)=O)NC(=O)[C@H](CC(C)C)NC(=O)[C@H](CC(C)C)NC(=O)[C@H](CCCN)NC(=O)[C@H](CCCNC(=N)N)NC(=O)[C@H](C)NC(=O)[C@H](CO)NC(=O)[C@H](CC(C)C)NC(=O)[C@H](CCC(N)=O)NC(=O)[C@H](CC)NC(=O)[C@H](CC(C)C)NC(=O)[C@@H](NC(=O)[C@H](CCCN)NC(=O)[C@H](CCCNC(=N)N)NC(=O)[C@H](Cc1ccc(O)cc1)NC(=O)[C@H](CO)NC(=O)[C@H](CCC(N)=O)NC(=O)[C@@H](NC(=O)[C@H](Cc1ccccc1)NC(=O)[C@@H](NC(=O)[C@H](C)NC(=O)[C@H](CC(=O)O)NC(=O)[C@@H](C)NC(=O)[C@H](Cc1ccc(O)cc1)NC)[C@@H](C)CC)[C@@H](C)O)C(C)C)[C@@H](C)CC)C(=O)N[C@@H](CC(=O)O)C(=O)N[C@@H](CCCNC(=N)N)C(=O)NCCCCC(N)=O`, the relative potency was 303 (GH release; male rat, serum; subcutaneous, dose not given, 30 min; reference: GHRH(1-29)NH2).
With `CCCCCCCCOP(=O)(O)Oc1c2c(c(OP(=O)(O)OCCCCCCCC)c3c1C1CC3c3cc4c(cc31)C1CC4c3ccccc31)C1CC2c2cc3c(cc21)C1CC3c2ccccc21` the dye leakage was < 50% (liposomes; 30 min).
`Cc1ncsc1-c1ccc(C(CO)NC(=O)C2CC(O)CN2C(=O)C(C(C)C)n2cc(-c3ccc(COc4c(-c5c(C)c(F)cc6[nH]ncc56)c(C5CC5)cc5c(N6CC7CC6CN7)nc(OC6CCOCC6)nc45)cc3)nn2)cc1` (stereo not shown) gave a tumour regression of 63% (mouse PK-59 xenograft; intravenous, 30 mg/kg once weekly, day 21).
The leakage of `CCCCCCCCCC(=O)NCCCC[C@@H](NC(=O)[C@@H](CC(C)C)NC(=O)[C@@H](CCCCN)NC(=O)[C@@H](CCCCNC(=O)[C@@H](CC(C)C)NC(=O)[C@@H](CCN)NC(=O)[C@@H](CCCCNC(=O)[C@@H](Cc1ccccc1)NC(=O)[C@H](N)CCCN)NC(=O)[C@@H](Cc1ccccc1)NC(=O)[C@H](N)CCCN)NC(=O)[C@@H](CC(C)C)NC(=O)[C@@H](CCN)NC(=O)[C@@H](CCCCNC(=O)[C@@H](Cc1ccccc1)NC(=O)[C@H](N)CCCN)NC(=O)[C@@H](Cc1ccccc1)NC(=O)[C@H](N)CCCN)C(N)=O` is reported as 65% (carboxyfluorescein release; EYPG vesicles; 10 µg/mL, 250 s, pH 7.4, 25 °C; reference: Triton X-100).
The EC50 of `O=C1/C(=C/c2ccc(O)cc2)Oc2cc(O)c(-c3ccc(O)c(O)c3)c(O)c21` is reported as 1180 µM (ABTS scavenging, absorbance).

A few entries again:
The EC50 of `O=C1/C(=C/c2ccc(O)cc2)Oc2cc(O)c(-c3ccc(O)c(O)c3)c(O)c21` is reported as 1180 µM (ABTS scavenging, absorbance).
`CCCCSc1nnc(-c2ccccc2)o1` gave an IC50 of 90.1 ± 2.2 µM (H2O2 scavenging).
